# Measurements pooled from the literature.
# Each numbered part is a random draw from the data of one study; scales do not carry over between parts. Values joined by “and” are separate records of one study, mostly repeats; a detail may differ.
# UniProt P37173, sequence (whole entry, looked up): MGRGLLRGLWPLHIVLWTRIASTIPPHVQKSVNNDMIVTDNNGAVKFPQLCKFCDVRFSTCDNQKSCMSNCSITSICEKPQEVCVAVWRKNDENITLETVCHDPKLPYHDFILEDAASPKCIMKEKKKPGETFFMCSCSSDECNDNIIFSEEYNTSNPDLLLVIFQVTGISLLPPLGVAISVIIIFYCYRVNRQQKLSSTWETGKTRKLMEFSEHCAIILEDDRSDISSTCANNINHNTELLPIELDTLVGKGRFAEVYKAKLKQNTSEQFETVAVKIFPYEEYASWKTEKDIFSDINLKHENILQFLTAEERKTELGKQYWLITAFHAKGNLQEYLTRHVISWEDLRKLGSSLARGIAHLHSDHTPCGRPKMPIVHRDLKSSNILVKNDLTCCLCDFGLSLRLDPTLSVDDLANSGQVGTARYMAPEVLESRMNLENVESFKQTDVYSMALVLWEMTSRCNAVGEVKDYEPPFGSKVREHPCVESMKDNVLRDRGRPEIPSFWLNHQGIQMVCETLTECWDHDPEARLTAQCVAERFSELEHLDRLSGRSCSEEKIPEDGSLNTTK
# UniProt Q9BX84, sequence (whole entry, looked up): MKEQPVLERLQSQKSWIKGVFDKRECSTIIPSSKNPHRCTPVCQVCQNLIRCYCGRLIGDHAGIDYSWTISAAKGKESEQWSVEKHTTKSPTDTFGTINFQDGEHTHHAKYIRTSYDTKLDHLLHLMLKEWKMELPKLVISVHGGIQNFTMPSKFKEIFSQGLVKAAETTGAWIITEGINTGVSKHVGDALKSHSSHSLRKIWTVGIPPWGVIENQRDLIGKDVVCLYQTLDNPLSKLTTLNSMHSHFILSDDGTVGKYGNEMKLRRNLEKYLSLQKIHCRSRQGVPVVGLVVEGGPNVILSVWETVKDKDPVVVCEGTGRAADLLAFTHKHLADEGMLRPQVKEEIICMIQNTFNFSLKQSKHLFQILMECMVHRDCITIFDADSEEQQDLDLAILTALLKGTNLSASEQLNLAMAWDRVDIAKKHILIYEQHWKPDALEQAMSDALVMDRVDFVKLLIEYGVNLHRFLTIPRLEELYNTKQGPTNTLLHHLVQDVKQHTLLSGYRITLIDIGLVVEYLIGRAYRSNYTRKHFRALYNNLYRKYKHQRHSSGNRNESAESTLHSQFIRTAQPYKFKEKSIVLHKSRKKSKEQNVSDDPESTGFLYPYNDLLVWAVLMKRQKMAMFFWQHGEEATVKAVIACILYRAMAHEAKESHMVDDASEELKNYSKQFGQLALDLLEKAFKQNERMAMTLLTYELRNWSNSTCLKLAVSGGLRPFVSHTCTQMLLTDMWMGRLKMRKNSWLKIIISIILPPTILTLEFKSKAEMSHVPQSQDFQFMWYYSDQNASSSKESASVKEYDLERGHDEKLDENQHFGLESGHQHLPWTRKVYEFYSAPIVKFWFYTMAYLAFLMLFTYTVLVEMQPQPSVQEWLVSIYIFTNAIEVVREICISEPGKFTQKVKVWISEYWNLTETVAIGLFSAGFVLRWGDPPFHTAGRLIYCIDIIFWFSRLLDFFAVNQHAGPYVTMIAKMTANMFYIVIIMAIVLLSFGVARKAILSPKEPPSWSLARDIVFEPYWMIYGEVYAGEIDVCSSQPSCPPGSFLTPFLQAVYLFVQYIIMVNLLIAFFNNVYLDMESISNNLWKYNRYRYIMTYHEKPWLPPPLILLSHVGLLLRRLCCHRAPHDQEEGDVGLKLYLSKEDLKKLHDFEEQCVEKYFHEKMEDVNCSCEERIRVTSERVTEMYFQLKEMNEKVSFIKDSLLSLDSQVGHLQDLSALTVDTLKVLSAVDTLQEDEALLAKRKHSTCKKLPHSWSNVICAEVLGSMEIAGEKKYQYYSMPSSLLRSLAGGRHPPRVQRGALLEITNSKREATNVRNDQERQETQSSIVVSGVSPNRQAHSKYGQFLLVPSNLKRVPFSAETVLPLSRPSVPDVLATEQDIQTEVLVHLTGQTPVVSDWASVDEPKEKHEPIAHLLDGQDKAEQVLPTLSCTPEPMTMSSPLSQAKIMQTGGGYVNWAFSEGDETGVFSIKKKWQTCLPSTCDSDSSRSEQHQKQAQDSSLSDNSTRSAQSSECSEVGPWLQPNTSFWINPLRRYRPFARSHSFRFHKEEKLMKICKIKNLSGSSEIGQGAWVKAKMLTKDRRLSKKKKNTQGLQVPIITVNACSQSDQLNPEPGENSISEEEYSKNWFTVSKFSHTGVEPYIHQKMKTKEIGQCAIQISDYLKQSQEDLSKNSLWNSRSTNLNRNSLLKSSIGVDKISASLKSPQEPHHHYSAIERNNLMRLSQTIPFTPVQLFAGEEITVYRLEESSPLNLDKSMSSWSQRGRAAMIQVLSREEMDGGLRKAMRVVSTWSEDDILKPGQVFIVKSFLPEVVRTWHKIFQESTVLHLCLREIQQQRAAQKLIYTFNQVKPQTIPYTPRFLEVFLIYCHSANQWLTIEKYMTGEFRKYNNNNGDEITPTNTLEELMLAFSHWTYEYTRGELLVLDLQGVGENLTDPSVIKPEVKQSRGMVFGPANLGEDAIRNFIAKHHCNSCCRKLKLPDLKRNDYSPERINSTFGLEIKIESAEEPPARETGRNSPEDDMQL
# UniProt P22607, sequence (whole entry, unmodified, looked up): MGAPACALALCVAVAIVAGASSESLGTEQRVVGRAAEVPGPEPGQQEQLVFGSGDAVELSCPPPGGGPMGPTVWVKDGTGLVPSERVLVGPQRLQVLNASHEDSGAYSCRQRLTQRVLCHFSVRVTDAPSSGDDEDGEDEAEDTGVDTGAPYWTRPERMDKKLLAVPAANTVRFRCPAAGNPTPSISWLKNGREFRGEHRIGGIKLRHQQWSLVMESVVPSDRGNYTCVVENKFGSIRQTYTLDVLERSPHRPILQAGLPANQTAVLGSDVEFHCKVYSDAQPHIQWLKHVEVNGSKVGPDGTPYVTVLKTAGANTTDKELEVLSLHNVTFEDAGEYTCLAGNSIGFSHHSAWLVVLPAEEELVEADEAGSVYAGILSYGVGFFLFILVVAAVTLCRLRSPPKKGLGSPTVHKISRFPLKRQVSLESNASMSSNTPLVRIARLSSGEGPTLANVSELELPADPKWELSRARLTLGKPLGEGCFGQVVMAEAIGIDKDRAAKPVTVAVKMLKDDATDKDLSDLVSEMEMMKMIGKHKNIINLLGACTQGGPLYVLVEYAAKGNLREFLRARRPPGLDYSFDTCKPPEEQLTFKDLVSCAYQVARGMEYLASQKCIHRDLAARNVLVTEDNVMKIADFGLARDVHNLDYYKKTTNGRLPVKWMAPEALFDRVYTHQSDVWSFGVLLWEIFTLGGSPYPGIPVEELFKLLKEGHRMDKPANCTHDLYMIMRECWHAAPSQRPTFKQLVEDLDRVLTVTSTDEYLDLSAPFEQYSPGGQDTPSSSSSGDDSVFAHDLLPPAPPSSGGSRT
# UniProt P31749, sequence (whole entry, looked up): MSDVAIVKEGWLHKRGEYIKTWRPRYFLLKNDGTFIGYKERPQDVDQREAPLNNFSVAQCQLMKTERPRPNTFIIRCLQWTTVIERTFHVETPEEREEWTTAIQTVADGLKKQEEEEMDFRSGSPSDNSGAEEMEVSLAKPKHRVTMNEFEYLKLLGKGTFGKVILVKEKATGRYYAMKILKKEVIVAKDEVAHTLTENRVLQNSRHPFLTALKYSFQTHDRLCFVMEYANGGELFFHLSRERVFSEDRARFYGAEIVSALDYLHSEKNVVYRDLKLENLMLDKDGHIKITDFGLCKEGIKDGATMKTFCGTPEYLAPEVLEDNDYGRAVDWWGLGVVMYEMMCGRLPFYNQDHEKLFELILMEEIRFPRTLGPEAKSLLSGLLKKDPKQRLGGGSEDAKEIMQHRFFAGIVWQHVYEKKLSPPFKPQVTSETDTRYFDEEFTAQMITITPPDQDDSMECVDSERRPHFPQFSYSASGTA
# UniProt P48729, sequence (whole entry, looked up): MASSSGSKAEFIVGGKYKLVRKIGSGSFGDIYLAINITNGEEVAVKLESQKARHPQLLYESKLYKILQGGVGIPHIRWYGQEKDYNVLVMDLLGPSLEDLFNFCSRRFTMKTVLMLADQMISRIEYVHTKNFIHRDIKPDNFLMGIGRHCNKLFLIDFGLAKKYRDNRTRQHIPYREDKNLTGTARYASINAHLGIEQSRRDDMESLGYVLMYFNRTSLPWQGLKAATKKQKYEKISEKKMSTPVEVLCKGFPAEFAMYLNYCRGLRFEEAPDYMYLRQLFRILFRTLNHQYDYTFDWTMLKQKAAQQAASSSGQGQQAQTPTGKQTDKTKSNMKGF

# Series 1
# Structure (SMILES): CCCOc1ccc([C@@H]2[C@@H](C(=O)O)[C@H](c3ccc4c(c3)OCO4)CN2CC(=O)Nc2c(CC)cccc2CC)cc1
# Read-out: cell-free assay
# Technique: competition with immobilised ligand
# Concentration: 1 µM
target,remaining binding [%]
"RAC-alpha serine/threonine-protein kinase (AKT1, Homo sapiens, UniProt P31749)",100
"Casein kinase I isoform alpha (CSNK1A1, Homo sapiens, UniProt P48729)",73
"Receptor-type tyrosine-protein kinase FLT3 (FLT3, Homo sapiens, UniProt P36888, R834Q)",100
"Fibroblast growth factor receptor 3 (FGFR3, Homo sapiens, UniProt P22607, G697C)",99
"Transient receptor potential cation channel subfamily M member 6 (TRPM6, Homo sapiens, UniProt Q9BX84)",77

# Series 2
# Cell line: A-375
# Concentration: 100 µM
# Time: 36 h
Structure (SMILES),viability [%]
Cc1[nH]c2ccccc2c1CCNCc1ccc(/C=C/C(=O)NO)cc1,10.2
CO[C@H]1C[C@H](O[C@H]2[C@H](C)O[C@@H](O[C@@H]3/C(C)=C/C[C@@H]4C[C@@H](C[C@]5(C=C[C@H](C)[C@@H](C6CCCCC6)O5)O4)OC(=O)[C@@H]4C=C(C)[C@@H](O)[C@H]5OC/C(=C\C=C\[C@@H]3C)[C@]54O)C[C@@H]2OC)O[C@@H](C)[C@@H]1O,22.7
CCN1CCN(c2cc(-c3ccc(F)cc3)c3c(n2)CCCCCC3)CC1,-0.916

# Single results of other studies
SMILES,tested on,test,test system,conditions,how to read,quantity,value
CCC[C@@H]1NC(=O)CSC[C@@H](C(=O)OCC)N(C)C(=O)[C@H](CC(C)C)NC(=O)[C@H](C)N(C)C(=O)[C@H](CC(C)C)NC(=O)[C@H](C)N(C)C(=O)[C@@H]2CCCN2C(=O)[C@@H](CC(C)C)NC(=O)CN(CCC)C1=O,,,hydrocarbon/water,,,logD,0.583
c1ccc2c(-c3nn4c(-c5ccncc5)nnc4s3)c[nH]c2c1,"α-galactosidase (human, wild type)",,healthy dermal fibroblasts,"0.5 µM, without ISRIB",relative to: DMSO,remaining activity,158% and 147% and 143% and 122% and 106% and 127% and 159%
C[S+]([O-])c1ccc(-c2nc(-c3ccncc3)c(-c3ccc(F)cc3)[nH]2)cc1 (centres unmarked),"TGF-beta receptor type-2 (TGFBR2, Homo sapiens, UniProt P37173)",cell-free assay,,0.5 µM,,remaining signal,144%

# For quick reference, copied from above (series 2):
Structure (SMILES),viability [%]
Cc1[nH]c2ccccc2c1CCNCc1ccc(/C=C/C(=O)NO)cc1,10.2
CO[C@H]1C[C@H](O[C@H]2[C@H](C)O[C@@H](O[C@@H]3/C(C)=C/C[C@@H]4C[C@@H](C[C@]5(C=C[C@H](C)[C@@H](C6CCCCC6)O5)O4)OC(=O)[C@@H]4C=C(C)[C@@H](O)[C@H]5OC/C(=C\C=C\[C@@H]3C)[C@]54O)C[C@@H]2OC)O[C@@H](C)[C@@H]1O,22.7
